Measurements gathered from unrelated publications.
Protocols differ between the studies behind these lines. Several values in a cell are separate wells, animals, samples, runs or records. Numbers after ± are the reported error.

| Structure (SMILES) | test | test system | setting | scale | endpoint | result |
| --- | --- | --- | --- | --- | --- | --- |
| CCCCCCCC[N+](C)(C)C | substrate depletion | human liver microsomes | 0.5 µM, 0 to 3 h, 37 °C, together with: NADPH | – | intrinsic clearance | 0.144 mL/h/mg protein |
| Cc1sc2c(c1C)C(c1ccc(Cl)cc1)=N[C@@H](CC(=O)OC(C)(C)C)c1nnc(C)n1-2 | – | Ringer's with 10% beta-cyclodextrin | time not given, plastic vessel, glass vial | reference: nominal 50 ng/mL | recovery | 91% |
| NC(=O)c1nc(F)c[nH]c1=O | UV-Vis spectrophotometry | supercritical CO2 | 120 min, 308 K, 18 MPa, 848.87 kg/m^3 | – | solubility | 437 µg/mL |
| CSCC[C@@H]1NC(=O)[C@H](CC(=O)O)NC(=O)CNC(=O)[C@H](CCCNC(=N)N)NC(=O)[C@H](C)NC(=O)[C@H](CCC(=O)O)NC(=O)[C@H](CCCNC(=N)N)NC(=O)[C@@H]2CSSC[C@@H]3NC(=O)[C@H](CO)NC(=O)[C@H]([C@@H](C)O)NC(=O)[C@@H]4CCCN4C(=O)[C@H](C)NC(=O)[C@H](Cc4c[nH]c5ccccc45)NC(=O)[C@H](CC(=O)O)NC(=O)CNC(=O)[C@H](CCCNC(=N)N)NC(=O)CNC(=O)[C@H](CCC(N)=O)NC(=O)[C@@H]4CCCN4C(=O)[C@@H](NC(=O)CNC(=O)C(C)F)CSSC[C@H](NC(=O)CNC(=O)[C@H](C)NC(=O)[C@H](CC(C)C)NC(=O)[C@H](CSSC[C@@H](C(=O)NCC(N)=O)NC(=O)[C@H]([C@@H](C)O)NC(=O)[C@H](CCCNC(=N)N)NC(=O)[C@@H]4CCCN4C1=O)NC(=O)[C@H](CC(=O)O)NC(=O)[C@H](CO)NC(=O)[C@H](CC(=O)O)NC(=O)[C@H](CCC(N)=O)NC(=O)[C@H](CO)NC3=O)C(=O)N[C@@H](C(C)C)C(=O)N2 (stereo partly shown) [fluorine-18 labelled] | – | nude mice U-87 MG xenograft, muscle | intravenous, 0.5 h | – | tissue uptake | 0.35 ± 0.1 %ID/g |
| CC1N=C(c2ccccc2F)c2cc(Nc3ccc(C#N)cc3)ccc2NC1=O (stereo not shown) | shake flask | PBS | 24 h, pH 7.4 | – | solubility | 3.57 µM |
| CC(C)C[C@@H](N)C(=O)N[C@H]1C(=O)N[C@@H](CC(N)=O)C(=O)N[C@H]2C(=O)N[C@H]3C(=O)N[C@H](C(=O)N[C@H](C(=O)O)c4cc(O)cc(O)c4-c4cc3ccc4O)[C@H](O)c3ccc(c(Cl)c3)Oc3cc2cc(c3O[C@@H]2O[C@H](CO)[C@@H](O)[C@H](O)[C@H]2O[C@H]2C[C@](C)(N)[C@H](O)[C@H](C)O2)Oc2ccc(cc2Cl)[C@H]1O | – | New Zealand White rabbit, aqueous humour | continuous topical ocular, dose not given, 24 h | reference: eye drops | AUC(0-24) ratio | ~10 fold |
| Oc1ccc2ccc3c4ccccc4cc4ccc1c2c43 | UPLC-AMS | human, plasma | oral, 25 ng of [14C]-BaP | – | AUC | 1.88 ± 0.47 fg BaP equivalents·h/mL |
| CC(=O)N[C@H](CCCCNC(=O)C(C)F)C(=O)N[C@@H](CS)C(=O)N[C@@H](CS)C(=O)N[C@@H](CCC(=O)O)C(=O)N[C@@H](Cc1c[nH]cn1)C(=O)N[C@H](Cc1ccccc1)C(=O)N[C@@H](CCCNC(=N)N)C(=O)N[C@@H](Cc1c[nH]c2ccccc12)C(=O)N[C@@H](CS)C(=O)N[C@@H](CCCNC(=N)N)C(=O)N1CCC[C@H]1C(=O)N[C@H](C(N)=O)C(C)C (stereo partly shown) [fluorine-18 labelled] | – | male C57BL/6 mice, B16-F10 tumour | intravenous, 4 h | reference: tumour over muscle | tumour to tissue uptake ratio | 17 ± 1.73 |
| O=C(c1ccc(F)c(F)c1Nc1ccc(I)cc1F)N1CC(O)([C@@H]2CCCCN2)C1 | measured: retinal detachment | human patients | oral, dose not given, dose escalation, suspension, grade G1 | – | treatment-related adverse events | 8% |
| [123I]c1cncc(OC[C@@H]2CCN2)c1 | SPECT | human, low plasma nicotine, Pons | intravenous | reference: plasma | tissue/plasma ratio | 29.7 |
| C/C=C1/C[C@@H](C)[C@](O)(CO)C(=O)OCC2=CC[N@@+]3([O-])CC[C@@H](OC1=O)[C@@H]23 | – | human whole blood | 1000 ng/mL, 60 min, 37 °C | – | blood-to-plasma ratio | 0.736 |
| CC(C)C[C@H](NC(=O)[C@H](C)NC(=O)[C@H](Cc1c[nH]cn1)NC(=O)[C@H](CO)NC(=O)[C@H](CCCCN)NC(=O)[C@H](Cc1ccccc1)NC(=O)CNC(=O)[C@@H](N)CC(N)=O)C(=O)N[C@@H](CCC(N)=O)C(=O)N[C@@H](CC(C)C)C(=O)N[C@@H](CC(N)=O)C(=O)N[C@@H](CC(N)=O)C(=O)N[C@@H](CCCNC(=N)N)C(=O)N[C@@H](CCC(N)=O)C(=O)O | LC-MS/MS | human serum | concentration not given, 4 h, room temperature, tube with gel separator | reference: initial concentration | change in serum concentration | -54.5 ± 17% |
| CC[C@H](C)[C@H](NC(=O)[C@@H](N)CCCNC(=N)N)C(=O)N[C@H](C(=O)N1CCC[C@H]1C(=O)N[C@@H](C)C(N)=O)C(C)C | – | human, plasma | intravenous, 5 mg/kg, single dose, healthy volunteers | – | MRT | 6 min |
| CCCCCOc1ccc(-c2ccc(-c3ccc(C(=O)N[C@H]4C[C@@H](O)[C@@H](O)NC(=O)[C@@H]5[C@@H](O)[C@@H](C)CN5C(=O)[C@H]([C@@H](C)O)NC(=O)[C@H]([C@H](O)[C@@H](O)c5ccc(O)cc5)NC(=O)[C@@H]5C[C@@H](O)CN5C(=O)[C@H]([C@@H](C)O)NC4=O)cc3)cc2)cc1 | – | infants, plasma | intravenous, 1.5 mg/kg/day after 3 mg/kg loading, 0 to 24 h | – | AUC at steady state, range | 54800 to 278000 ng·h/mL |
| Cc1cnc(C(=O)N[C@H]2CCCCC/C=C\[C@@H]3C[C@@]3(C(=O)NS(=O)(=O)C3CC3)NC(=O)[C@@H]3C[C@@H](Oc4nc5ccccc5c5ccccc45)CN3C2=O)cn1 | – | healthy human volunteers, plasma | oral, dose not given, together with: omeprazole plus 2D regimen | – | AUC(0-24) | 10300 ng·h/mL |
| CCCCCOc1ccc(-c2cc(-c3ccc(C(=O)N[C@H]4C[C@@H](O)[C@@H](O)NC(=O)[C@@H]5[C@@H](O)[C@@H](C)CN5C(=O)[C@H]([C@H](O)CC(N)=O)NC(=O)[C@H]([C@H](O)[C@@H](O)c5ccc(O)c(OS(=O)(=O)O)c5)NC(=O)[C@@H]5C[C@@H](O)CN5C(=O)[C@H]([C@@H](C)O)NC4=O)cc3)no2)cc1 | – | human paediatric patients 6 to sample C years, plasma | intravenous, 3 mg/kg once daily, day 7, mean | – | steady-state clearance | 7.21 mL/min |

| Structure (SMILES) | test | test system | setting | scale | endpoint | result |
| --- | --- | --- | --- | --- | --- | --- |
| O[C@H]1CCCN[C@@H]1CCCn1cnc2c(Cl)c(Cl)ccc21 | – | healthy volunteers, urine | oral, 300 mg capsule single, geometric mean | – | renal clearance (0-72 h) | 244 mL/min |
| CCCCCOc1ccc(-c2ccc(-c3ccc(C(=O)N[C@H]4C[C@@H](O)[C@@H](O)NC(=O)[C@@H]5[C@@H](O)[C@@H](C)CN5C(=O)[C@H]([C@@H](C)O)NC(=O)[C@H]([C@H](O)[C@@H](O)c5ccc(O)cc5)NC(=O)[C@@H]5C[C@@H](O)CN5C(=O)[C@H]([C@@H](C)O)NC4=O)cc3)cc2)cc1 | – | patients aged sample B to <sample C years, plasma | intravenous, loading 200 then 100 mg daily | – | AUC(0-24) steady state mean | 92100 ng·h/mL |
| Cc1ccc(Nc2nccc(N(C)c3ccc4c(C)n(C)nc4c3)n2)cc1S(N)(=O)=O | – | patients with gastric acid suppression, plasma | oral, 600 mg once daily, 24 h, with food, first steady state, geometric mean | – | Cmin | 26000 ng/mL |
| O=c1[nH]c(Cc2ccccn2)nc2c1cnn2C1CCOCC1 | – | male human, plasma | oral, 50 mg, single dose | – | Tmax | 19.8 min |
| CCc1cc(O)ccc1-c1ccc2c(-c3nc4c([nH]3)CN(C(C)C)[C@H](C(=O)N3CC(N(C)C)C3)C4)n[nH]c2c1 | – | human, plasma | inhalation, 1 mg, single dose, geometric mean | – | t1/2 | 1100 min |
| CC(=O)Nc1ccc2c(c1)Cc1ccccc1-2 | reconstructed skin micronucleus | EpiDerm reconstructed skin | concentration not given, 48 h, together with: cytochalasin B 3 µg/mL | – | cytotoxicity threshold dose | 140 µg/cm2 |
| CC(C)C[C@H](NC(=O)[C@H](CCC(=O)O)NC(=O)[C@H](CCC(=O)O)NC(=O)[C@H](CC(=O)O)NC(=O)[C@H](CCC(=O)O)NC(=O)[C@H](CCC(=O)O)NC(=O)[C@H](CCC(=O)O)NC(=O)[C@@H](N)CC(=O)O)C(=O)O | – | rat, plasma | intranasal, 5.5 mg/kg single dose, 165 min | – | plasma concentration | 21.6 ng/mL |
| CC(C)C(=O)OC[C@H]1O[C@@H](n2ccc(NO)nc2=O)[C@H](O)[C@@H]1O | – | rat blood dialysate | 250 ng/mL, 6 h, room temperature, bench-top stability, together with: NHC 1000 ng/mL | – | remaining compound | 108 ± 3.29% |
| COC(=O)N[C@H](C(=O)N1CCC[C@H]1C(=O)Nc1ccc([C@@H]2CC[C@@H](c3ccc(NC(=O)[C@@H]4CCCN4C(=O)[C@@H](NC(=O)OC)C(C)C)cc3)N2c2ccc(C(C)(C)C)cc2)cc1)C(C)C | – | healthy human volunteers, plasma | oral, dose not given, together with: escitalopram plus 2D regimen | – | AUC(0-24) | 1310 ng·h/mL |
| CCCCCCCCCCCCCCCC[N+](C)(C)Cc1ccccc1 | substrate depletion | human liver microsomes | 0.5 µM, 0 to 3 h, 37 °C, together with: NADPH | – | intrinsic clearance | 0.63 mL/h/mg protein |
| CC(=O)O[C@H]1C(=O)[C@@]2(C)[C@H]([C@H](OC(=O)c3ccccc3)[C@]3(O)C[C@H](OC(=O)[C@H](O)[C@@H](NC(=O)c4ccccc4)c4ccccc4)C(C)=C1C3(C)C)[C@]1(OC(C)=O)CO[C@@H]1C[C@@H]2O | – | BALB/c mouse, serum | intraperitoneal, 10 mg/kg every three days, 60 days | – | LDH | 632 U/L and 568 U/L and 608 U/L |
| CC[C@H](C)[C@H](NC(=O)[C@H](CC(C)C)NC(=O)[C@H](Cc1c[nH]c2ccccc12)NC(=O)[C@H](CCC(N)=O)NC(=O)[C@@H](NC(=O)[C@H](Cc1ccccc1)NC(=O)[C@H](C)NC(=O)[C@H](CCCCNC(=O)COCCOCCNC(=O)COCCOCCNC(=O)CC[C@H](NC(=O)CCCCCCCCCCCCCCCCCCC(=O)O)C(=O)O)NC(=O)[C@H](CCC(N)=O)NC(=O)[C@H](C)NC(=O)[C@@H](NC(=O)[C@H](CCCCN)NC(=O)[C@H](CC(=O)O)NC(=O)[C@H](CC(C)C)NC(=O)C(C)(C)NC(=O)[C@@H](NC(=O)[C@H](CO)NC(=O)[C@H](Cc1ccc(O)cc1)NC(=O)[C@H](CC(=O)O)NC(=O)[C@H](CO)NC(=O)[C@@H](NC(=O)[C@H](Cc1ccccc1)NC(=O)[C@@H](NC(=O)CNC(=O)[C@H](CCC(=O)O)NC(=O)C(C)(C)NC(=O)[C@@H](N)Cc1ccc(O)cc1)[C@@H](C)O)[C@@H](C)O)[C@@H](C)CC)[C@@H](C)CC)C(C)C)C(=O)N[C@@H](C)C(=O)NCC(=O)NCC(=O)N1CCC[C@H]1C(=O)N[C@@H](CO)C(=O)N[C@@H](CO)C(=O)NCC(=O)N[C@@H](C)C(=O)N1CCC[C@H]1C(=O)N1CCC[C@H]1C(=O)N1CCC[C@H]1C(=O)N[C@@H](CO)C(N)=O | – | human | subcutaneous, 5 mg, 29 h | – | blood glucose at hypoglycaemia | 53 mg/dL |
| CCN(CC)CCCC(C)Nc1ccnc2cc(Cl)ccc12 (stereo not shown) | – | male athymic BALB/c nude mice, xenograft, serum | intraperitoneal, 60 mg/kg every other day, 2 weeks, together with: sulforaphane 5 mg/kg | – | uric acid | 127 ± 5.63 µmol/L |
| O=C(NCCS)c1cccc(C(=O)NCCS)c1 | – | rat, Sprague-Dawley, male, plasma | intravenous, 1 mg/kg, 1 h | – | plasma concentration | 184 ng/mL |
| CN[C@@](C)(C[18F])C(=O)O | – | SCID mouse SK-OV-3 xenograft, kidney | 60 min, post injection | – | tissue uptake | 5.1 ± 0.8 %ID/g |

For quick reference, copied from above:
| Structure (SMILES) | test | test system | setting | scale | endpoint | result |
| --- | --- | --- | --- | --- | --- | --- |
| O=C(NCCS)c1cccc(C(=O)NCCS)c1 | – | rat, Sprague-Dawley, male, plasma | intravenous, 1 mg/kg, 1 h | – | plasma concentration | 184 ng/mL |
| Oc1ccc2ccc3c4ccccc4cc4ccc1c2c43 | UPLC-AMS | human, plasma | oral, 25 ng of [14C]-BaP | – | AUC | 1.88 ± 0.47 fg BaP equivalents·h/mL |
| CC(C)C[C@H](NC(=O)[C@H](C)NC(=O)[C@H](Cc1c[nH]cn1)NC(=O)[C@H](CO)NC(=O)[C@H](CCCCN)NC(=O)[C@H](Cc1ccccc1)NC(=O)CNC(=O)[C@@H](N)CC(N)=O)C(=O)N[C@@H](CCC(N)=O)C(=O)N[C@@H](CC(C)C)C(=O)N[C@@H](CC(N)=O)C(=O)N[C@@H](CC(N)=O)C(=O)N[C@@H](CCCNC(=N)N)C(=O)N[C@@H](CCC(N)=O)C(=O)O | LC-MS/MS | human serum | concentration not given, 4 h, room temperature, tube with gel separator | reference: initial concentration | change in serum concentration | -54.5 ± 17% |
| O[C@H]1CCCN[C@@H]1CCCn1cnc2c(Cl)c(Cl)ccc21 | – | healthy volunteers, urine | oral, 300 mg capsule single, geometric mean | – | renal clearance (0-72 h) | 244 mL/min |
| CC1N=C(c2ccccc2F)c2cc(Nc3ccc(C#N)cc3)ccc2NC1=O (stereo not shown) | shake flask | PBS | 24 h, pH 7.4 | – | solubility | 3.57 µM |
